# Measurements from different studies.
# A part holds a random share of what one study measured.

# Sample 1 — method: RNA Bind-n-Seq; form: RNA; sample: in vitro; concentration: not given; reference: input RNA pool; reading: higher = stronger binding
# Target: RING finger protein unkempt homolog, zinc fingers 1-6, GST-SBP tag (UNK, Homo sapiens, UniProt Q9C0B0, residues 30-357)
# UniProt Q9C0B0, sequence (30-357, looked up): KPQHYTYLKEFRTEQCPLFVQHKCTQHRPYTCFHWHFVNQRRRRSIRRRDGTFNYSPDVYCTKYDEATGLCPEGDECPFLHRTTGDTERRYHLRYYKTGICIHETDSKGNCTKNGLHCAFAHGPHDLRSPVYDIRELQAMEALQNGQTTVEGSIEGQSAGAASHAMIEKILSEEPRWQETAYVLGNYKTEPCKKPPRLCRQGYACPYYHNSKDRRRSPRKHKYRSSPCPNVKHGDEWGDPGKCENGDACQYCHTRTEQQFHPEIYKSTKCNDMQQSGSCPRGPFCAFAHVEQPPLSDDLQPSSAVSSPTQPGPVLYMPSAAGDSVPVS
# Notes: RNA with constant flanks, human and mouse sites, ends assumed
Sequence,bound/input enrichment [ratio]
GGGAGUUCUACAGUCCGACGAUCUCAAAUACACUAUGAAGCUAAAGAAUUACUUGGCACCAGAUGCUACAGCUGCAGAUAAACGACUCACAGUACUUUGCCUGCGAUGCGAGUCUUUGCUGUACCUGAGGCUGUUCAAACUGACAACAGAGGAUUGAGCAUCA,0.122
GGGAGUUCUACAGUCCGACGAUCGUGGAUGCUGAUAGGUUUCACCAUCUAUUUCGGUUAUGGGAUCUGGCACAGUGAGGAAGCGUCCCUGGCUGCUGGCCAGGCAAAGACUCCUGACAGCAACUUGGACCAGUGCAAAUGACGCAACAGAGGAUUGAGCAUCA,0.191
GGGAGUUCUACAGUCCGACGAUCGAUAAAGACCCCAACAAGAAGAUGAAACGAAACUUAAGGAAAAUUCUGGAUAGUAAAGCAAUAGACCUUAUGAAUGCACUAAUGAGGCUAAAUCAGAUCAGGCCUGGGCUUCAGUAUAAGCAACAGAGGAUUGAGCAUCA,0.643
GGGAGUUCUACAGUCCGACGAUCAAGGAGAAGUGGGUGGAGAGUGCCUUUGAAGUGGACGGGCCCUACUAUUUCACAGUCUUGGCCCUUCACAUCCUGCCCCCUGAGCAGUGGAGAGCCACACGUGUGGAAAUCUUGCGGAGGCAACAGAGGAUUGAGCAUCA,0.199
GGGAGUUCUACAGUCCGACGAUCGUCUCCUUUCUUAAAGAAGUGCCACCCCCUUUUACUUUGGUUUGCUGUCGGAGGUUGUUUGAUGAUGAAGCUUCUGUAGAUGAACCAAGGCGCACUGAAACCUCUCUUCCUGAGACAGAGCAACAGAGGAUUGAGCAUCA,0.383
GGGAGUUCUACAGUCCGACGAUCGCACGGCGUUCUUCUUACCGAGUACAGUCAGAACCCCAGGAAGAGAGUUGGUAUGACUGUCACAGGGAAACAACUGCAAGUUUUUCUGAUACUUACCAGGAUUAUGAGGAGUACUGGAGACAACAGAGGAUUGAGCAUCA,0.215
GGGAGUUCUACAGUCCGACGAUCAAAAGAAACUGGUGUUACCAAGAGGACACCUCAGAAGUUAUUUACCCCUUCGCCAGAGAUUGUGAAAUAUACUCAUAAACUUGCUAUGGAGAGACUCUAUGCAGUUUUUACAGAUUACGACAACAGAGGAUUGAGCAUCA,0.191
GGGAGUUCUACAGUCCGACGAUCUCUGGUCACACUCGUGUGUAUGGUGUUUGCUUUGUGGACACUUCACUGGGCAAGUUUUUCAUCGGCCAGUUUUCGGAUGACCGCCACUGUUCCAGAUUUAGGACGCUAGUGGCUCACUAUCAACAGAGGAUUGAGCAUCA,0.216
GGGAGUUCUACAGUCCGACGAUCUUGAUCGAGUAAUGAUUAUCUAAGUAACUGUUGGGGACUGUGGAUAAAUUAGCAGGAGGGUAGUUUAUGAGAGCUGGCUUCAGGACGCUCUGUCCUCUGGAAGGAGUUUGUCUUCUGUGUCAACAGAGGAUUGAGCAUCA,0.854
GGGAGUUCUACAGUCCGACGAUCUGGCUUACCAACUAUUAAACAUUCUACCCUAUAGUAGCUUACAGCAGCUGAGUUUCAUGAUAUAGUCCUCACCGUCAUUAAAAUGUUCCUGUUCCCUUUUCACAACUUUUAGAUAAAAGGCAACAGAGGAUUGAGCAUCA,1.36
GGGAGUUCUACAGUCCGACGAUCUGUGUAGCCUUUUUUAAUAUCCUUAAUGAGUUAAAUGACUAUGCAGGACAGCGAGAAGUUGUAGCAGAAGAAAUGGCGCACAGAGUGUAUGGUGAAUUAAUGAGAUAUGCUCAUGAUCUGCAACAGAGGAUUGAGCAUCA,1.69

# Sample 2 — method: universal PBM; form: double-stranded DNA, one strand shown; sample: in vitro; concentration: 600 nM; reading: higher = stronger binding
# Target: Sal-like protein 4, full length isoform A (SALL4, Homo sapiens, UniProt Q9UJQ4, residues 1-1053)
# UniProt Q9UJQ4, sequence (whole entry, looked up): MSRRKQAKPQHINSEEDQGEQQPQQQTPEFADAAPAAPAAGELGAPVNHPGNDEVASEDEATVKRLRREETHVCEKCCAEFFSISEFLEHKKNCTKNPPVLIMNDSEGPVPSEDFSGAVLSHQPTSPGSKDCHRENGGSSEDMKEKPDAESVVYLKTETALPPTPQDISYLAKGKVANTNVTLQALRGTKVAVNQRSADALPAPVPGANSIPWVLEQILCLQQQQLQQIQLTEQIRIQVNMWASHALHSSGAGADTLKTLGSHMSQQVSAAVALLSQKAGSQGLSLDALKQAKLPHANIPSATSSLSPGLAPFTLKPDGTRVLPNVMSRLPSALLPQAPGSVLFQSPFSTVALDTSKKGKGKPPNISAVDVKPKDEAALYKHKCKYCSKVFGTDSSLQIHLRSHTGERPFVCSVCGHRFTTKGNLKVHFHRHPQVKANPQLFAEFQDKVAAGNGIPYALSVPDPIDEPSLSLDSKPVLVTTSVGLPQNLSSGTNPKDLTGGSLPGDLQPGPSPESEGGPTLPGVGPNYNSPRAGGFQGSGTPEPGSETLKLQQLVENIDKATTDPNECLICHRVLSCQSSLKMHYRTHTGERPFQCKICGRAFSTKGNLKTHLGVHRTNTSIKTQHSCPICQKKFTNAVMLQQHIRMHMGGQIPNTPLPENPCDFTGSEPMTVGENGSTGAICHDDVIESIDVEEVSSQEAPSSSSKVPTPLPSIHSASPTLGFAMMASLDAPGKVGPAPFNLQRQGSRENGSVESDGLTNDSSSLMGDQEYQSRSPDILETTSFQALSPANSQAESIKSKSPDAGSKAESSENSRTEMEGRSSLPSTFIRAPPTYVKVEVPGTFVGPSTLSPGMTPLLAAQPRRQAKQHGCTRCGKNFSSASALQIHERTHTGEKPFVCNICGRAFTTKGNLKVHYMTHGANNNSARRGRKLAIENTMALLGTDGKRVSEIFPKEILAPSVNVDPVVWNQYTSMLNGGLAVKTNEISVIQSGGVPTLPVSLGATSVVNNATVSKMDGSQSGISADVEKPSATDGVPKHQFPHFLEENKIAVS
# Notes: 8-mer, flanks averaged, mean of replicates
Sequence,E-score
GTCGAGGA,-0.189
AAGCAATG,0.0911
GGGTCTTA,-0.144
CTCTGTCA,0.038
ATACTAGA,0.234
ACGGCGAC,-0.309
CTTGTAAC,0.206
CGCGTAAC,-0.104
TCTTACCA,-0.033
CAGGGTAA,0.0519
GCCCCGGA,-0.367
CACAAGCG,-0.15
GAAGATGC,-0.132
GCAGTAGC,-0.042
CACAATGA,0.128
AGTAAAAT,0.252

# Sample 3 — method: aptamer microarray, sandwich; form: DNA with 2'F-ANA; sample: in vitro; concentration: 200 nM; added: Cy3 exosite-II aptamer, 400 nM; reading: higher = stronger binding; sequence: GGTTGGTGTGGTTGG
# Target: Prothrombin, mature alpha-thrombin (F2, Homo sapiens, UniProt P00734)
# Notes: whole 15-mer aptamer, many near background
Modification,mean fluorescence intensity
2'F-ANA at 4 6 7 8 9 10 12 13 14 15,74.2 a.u.
2'F-ANA at 2 5 6 7 8 9 10 12 13 15,59.8 a.u.
2'F-ANA at 1 2 4 5 6 8 11 13 14 15,53.6 a.u.
2'F-ANA at 3 4 6 7 9 10 12 13 14,186 a.u.
2'F-ANA at 1 2 3 6 7 8 9 12 13 14,85.1 a.u.
2'F-ANA at 2 4 6 9 11 12 14 15,89 a.u.
2'F-ANA at 1 3 6 7 10 13 14 15,60.1 a.u.
2'F-ANA at 4 5 8 9 15,92 a.u.
2'F-ANA at 2 4 6 13 14 15,78.5 a.u.
2'F-ANA at 2 5 7 9 11 14,54.4 a.u.
2'F-ANA at 2 5 12 14 15,46.8 a.u.
2'F-ANA at 3 4 5 6 7 8 10 11 13,47.6 a.u.
2'F-ANA at 2 3 5 6 7 9 11 14,50.5 a.u.
2'F-ANA at 2 3 4 5 8 10 13 14 15,45.8 a.u.
2'F-ANA at 3 4 6 8 9 14,241 a.u.
2'F-ANA at 2 7 12 14,256 a.u.
2'F-ANA at 5 6 10 11 15,52.1 a.u.
2'F-ANA at 1 2 3 4 5 6 9 10 12 13 14 15,67.4 a.u.
2'F-ANA at 3 6 7 8 10 11 13 15,411 a.u.
2'F-ANA at 1 4 6 7 12 15,259 a.u.
2'F-ANA at 1 2 4 5 6 8 9 10 11 13,88.1 a.u.

# Sample 4 — method: RNAcompete; form: RNA; sample: in vitro; concentration: 20 nM; notes: 7-mer, probes averaged, single round; reference: mean of 7-mers; reading: higher = stronger binding
# Target: PABPC1L2, full length, GST fusion (mouse, UniProt A0ABA7IW68)
# Construct (chain): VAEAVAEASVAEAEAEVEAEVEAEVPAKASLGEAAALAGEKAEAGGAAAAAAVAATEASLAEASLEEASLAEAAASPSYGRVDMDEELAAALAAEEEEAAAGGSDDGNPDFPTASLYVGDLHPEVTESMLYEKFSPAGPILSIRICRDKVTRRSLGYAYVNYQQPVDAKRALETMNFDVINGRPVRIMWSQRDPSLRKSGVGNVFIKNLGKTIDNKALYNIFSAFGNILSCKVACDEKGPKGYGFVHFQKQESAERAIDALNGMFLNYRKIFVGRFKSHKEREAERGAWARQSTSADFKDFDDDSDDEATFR
Sequence,7-mer Z-score
UUCAAUU,-0.315
AAUUAGC,0.175
AAUAAUA,0.553
GACCUCG,-0.302
AAACUCU,0.265
AAUACAA,1.14
CAAACGA,0.327
UCAAUAU,-0.168
CUACUCA,-0.195
CAGUGGU,-0.231
ACAACUU,-0.132
AAUAGUG,0.126
GACAACC,-0.00108
GCCUAUC,-0.264
CCCCCCG,-0.465
AAUCCUA,-0.191
CAACGCC,-0.115
AGCACCU,-0.266

# Sample 5 — method: RNA Bind-n-Seq; form: RNA; sample: in vitro; concentration: 365 nM; reference: no-protein control; reading: higher = stronger binding
# Target: RNA binding protein fox-1 homolog 2, RRM domain, GST-SBP tag (RBFOX2, Homo sapiens, UniProt O43251-10, residues 100-194)
# Notes: natural RNA segment, single round, ends assumed
# Construct (chain): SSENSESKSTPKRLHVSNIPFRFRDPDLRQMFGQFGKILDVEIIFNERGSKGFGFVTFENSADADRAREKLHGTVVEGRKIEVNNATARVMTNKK
Sequence,RBNS enrichment (R)
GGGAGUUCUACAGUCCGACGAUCCACUGUAGCUGUCUUCAGACACACUAGAAGAGGGCAUCAGAUUCCAUUACAGAUGGUUGUGAGCCGCCAUGUGGUUGCUGGGAGUAGAACUCAGGACCUCUGGGAAAGCAUGGAAUUCUCGGGUGCCAA,7.47
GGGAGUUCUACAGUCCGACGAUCAGAAAGAAAAAAUAGCAGCUUUCAGUGCUUCACAGUGAAGGGAAAAAAGCCUAGACAAACAUUUUGUCAGAACCUUGCGAAAUGCCAAGGUAUUACCAGUAAAUUGGUUGUGGAAUUCUCGGGUGCCAA,0.445
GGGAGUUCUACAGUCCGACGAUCAAUAUUCUACUGUGACAUGAAAAGUUCCUGUAUUUUCAAAAACUUUUCUAUUAAAAUUGAUUUAACUAUAAGUUUUUUAAAGUUUUAAAUUAUUUCACACAUGAAUCACUUGGAAUUCUCGGGUGCCAA,0.783
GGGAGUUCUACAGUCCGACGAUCUAUUGUAACUUGAAACACUAUAUUUUGUCUUUCCUGUGAGUAGCUCUAAGUUUGAGAGAAACCACUCCUCCAAGCUUCUCUGUUUCUUCCCAUUUCCUGUGGUCCUUUUUUGGAAUUCUCGGGUGCCAA,0.376
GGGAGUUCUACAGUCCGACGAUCCUGUGUCCCCCGUAGUAUCCCCGCAGCCCAGGCCGACGAGGCCCACCCCUGGACUUGAUCAGUAUUCAACCUUGUCUCCUGUCCCCAAUGUCGUAAGCACAAUUAGACUUUGGAAUUCUCGGGUGCCAA,0.365
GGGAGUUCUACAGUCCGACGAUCCUGGAACAGUACAUGGAGGCCUGACCUUGUGGGGGCACAGGGUGGAACCUUAGCUGAAUAUAGUGUGUGUCUCAAGAGGAAGUCAGGGUACUAGCUCAGUGCUCAAUCUCUGGAAUUCUCGGGUGCCAA,0.56
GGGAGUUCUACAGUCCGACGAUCUUAUGGCAGAUUUCAAGAUCACGUGACAAUGCAGUCUCUAAUUGUUCACUGUCCAUAUAUAUGAUUUUACGGAAUUAUGAAUUUUUCUGAUGAGUGUUGUAUAGAUGAUUUGGAAUUCUCGGGUGCCAA,0.871
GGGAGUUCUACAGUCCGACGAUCAGCCUAUAUCAGUCAUUUUAGUGUCUGACCUAAUGCUUGGCACUGUCAGUGCUUUGUUUAGAUGAUGACUUAAGACUUUUCAGCCUGUUUUACACACCCCAGCUCCCGUUUGGAAUUCUCGGGUGCCAA,0.246
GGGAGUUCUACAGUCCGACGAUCAGGUAGUUUUCUAUAGUAACUUGAUUAAUUUAGUCUUAAUCCAUUUGAAACUCUCUCUUCCUUUCUCUCUGCCUGUCCCUCUCCUUCUCCAUCUCACCCUCCCUCUCUCAUGGAAUUCUCGGGUGCCAA,0.813
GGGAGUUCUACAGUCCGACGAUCGUCCUGCCAUUCGUGUGCUUCCAUGGACAAACCUGAUUUUUUUCUCUUAGUUCUAAAGAAUCUUGGGUUAUUUUGUAGCGGUGCCAGUAUUUCAGUAGAUGGGAUUUCAGUGGAAUUCUCGGGUGCCAA,0.435
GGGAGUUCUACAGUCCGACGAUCAAGGAUGAAACUUGCCUGUUGGGGCGGAGCUGUCGCUCCUGAGGGGCCCCACCUUUACAUCCCAUCCCCACCUCACCCCUGCCCCAAUUAAGCCUUCCAAGUCCCCAGCCUGGAAUUCUCGGGUGCCAA,0.724
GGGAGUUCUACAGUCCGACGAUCAGGAGGAGGAGAAGGAGCCCCUCAGCAGAGUGGUGCAGUUUCGCUCAGAGCUUGUCUCCUUGGCUUCCAACCCCAGAAAUGCCUGCUGGGCCUUAAGCUUUCCAGGGGCCUGGAAUUCUCGGGUGCCAA,1.29

# Some of these lines once more (sample 2):
Sequence,E-score
CACAATGA,0.128
CGCGTAAC,-0.104
GCAGTAGC,-0.042
GTCGAGGA,-0.189
AAGCAATG,0.0911
CTTGTAAC,0.206
AGTAAAAT,0.252
